Measured values pooled from the literature.
Parts stem from different laboratories: compare values within a part only. Substitutions count along the parent as printed.

Series 1 — technique: protein-binding microarray; molecule type: double-stranded DNA, one strand shown; matrix: in vitro; concentration: 250 nM; notes: 60-bp whole probe; together with: salmon DNA 0.4 mg/ml; baseline: random background probes; reading: higher = stronger binding; constant ends, left off below: GCCTAGCAC … GTCTTGATTCGCTTGACGCTGCTG
Target: Interferon regulatory factor 5, full length, phosphomimetic (IRF5, Homo sapiens, UniProt Q13568-2, residues 1-514, K96S/S451D/S453D/S456D/S462D)
`TTGGGTTCCGGTTTCGGTTAGTGCTAG` gave a log fluorescence of 9.05 z-score.
`TTAGGTTCCCTTGTCCTTTAGTGCTAG` has a log fluorescence of 0.0104 z-score.
With `GGCAGCCTCTGCATTCCCTCAGTGCTA` the log fluorescence was -0.923 z-score.
`TTAGAACTAGGGTATCGATTAGTGCTA` has a log fluorescence of 2.09 z-score.
With `GACGGGCTGGGTATCGGGACGTGCTAG` the log fluorescence was 0.117 z-score.
For `GTGGTTCTGCTTCTTAGCGCGTGCTAG`, the log fluorescence was -0.203 z-score.
The log fluorescence of `TCACTCCTCCTTCTCTAACTGTGCTAG` is reported as 0.157 z-score.
For `TTAGGTATCGGGTATCCGTTAGTGCTA`, the log fluorescence was 4.26 z-score.
`TTAGATCTCAGTTTCGATGAGTGCTAG` has a log fluorescence of 8.42 z-score.
For `TTAGGTTTCGGTAGCGGTTAGTGCTAG`, the log fluorescence was 9.87 z-score.
`GACGGTCTCCTACTGCTGGCGTGCTAG` has a log fluorescence of -0.609 z-score.
The log fluorescence of `TTAGGGTTCGGACTGGGTTAGTGCTAG` is reported as -0.19 z-score.

Series 2 — technique: DHFR PCA, deep sequencing; matrix: yeast; together with: (+)-ABA 0 µM; baseline: wild-type fitted maximum; reading: higher = stronger binding
Target: ABI1, truncated, D143A, DHFR fusion (Arabidopsis thaliana)
Notes: methotrexate growth selection, single substitutions
Parent: PYL1, truncated, DHFR fusion (Arabidopsis thaliana); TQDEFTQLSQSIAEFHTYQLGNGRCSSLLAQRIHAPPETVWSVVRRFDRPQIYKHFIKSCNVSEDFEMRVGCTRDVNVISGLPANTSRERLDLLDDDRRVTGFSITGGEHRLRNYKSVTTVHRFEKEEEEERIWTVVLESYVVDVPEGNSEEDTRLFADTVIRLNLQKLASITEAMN; partner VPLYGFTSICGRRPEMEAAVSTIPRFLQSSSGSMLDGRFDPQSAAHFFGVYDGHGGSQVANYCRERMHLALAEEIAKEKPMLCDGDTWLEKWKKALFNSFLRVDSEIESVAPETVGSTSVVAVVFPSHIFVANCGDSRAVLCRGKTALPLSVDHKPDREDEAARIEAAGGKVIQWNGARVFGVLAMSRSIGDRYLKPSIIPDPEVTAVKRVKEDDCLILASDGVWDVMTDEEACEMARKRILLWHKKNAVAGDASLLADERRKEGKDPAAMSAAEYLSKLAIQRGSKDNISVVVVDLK
`H55R` — result for “relative binding score”: 12.5%.
`A84P`: “relative binding score” 31.4%.
`T135G` — result for “relative binding score”: -14.9%.
For `L20F`, “relative binding score” read 5.57%.
Under “relative binding score”, `L156D` is recorded as -0.776%.
Under “relative binding score”, `L91M` is recorded as 2.37%.
For `S63P`, “relative binding score” read 40.1%.
For `E139Y`, “relative binding score” read -6.36%.

Series 3 — technique: RNA Bind-n-Seq; molecule type: RNA; matrix: in vitro; concentration: 365 nM; baseline: no-protein control; reading: higher = stronger binding
Target: RNA binding protein fox-1 homolog 2, RRM domain, GST-SBP tag (RBFOX2, Homo sapiens, UniProt O43251-10, residues 100-194)
Notes: natural RNA segment, single round, ends assumed
Residues (chain): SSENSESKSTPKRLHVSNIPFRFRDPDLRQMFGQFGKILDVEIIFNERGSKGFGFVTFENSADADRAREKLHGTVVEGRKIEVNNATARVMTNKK
For `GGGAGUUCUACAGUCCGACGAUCUGGGAUGGGAGCAGAAGCCCAUGAUGGGACACUUGGGUGUGGGCCAGGGACAGGGCCUCUUUGGAAUUAGGCAGAACGACUGCCACAGCUCAGACCUCAGAGAUUGUGAAUGGAAUUCUCGGGUGCCAA`, “RBNS enrichment (R)” read 6.44.
Under “RBNS enrichment (R)”, `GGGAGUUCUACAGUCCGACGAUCAGUAGCUUCCCAAGCAGCUGCUCCUCUCAGGAGCCUGCUUAACACUUGCGCCAGCUCAGAGGCCUGCCUCUAUGGUCCAGUGCAUCCCCGCUGUGCUCAGAUGCUGACGAUGGAAUUCUCGGGUGCCAA` is recorded as 0.207.
`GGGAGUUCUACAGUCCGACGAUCCUCGUAGGUAGUCAUGGAAGUCACAGGUAAGUGCAGGAGCUUGAAGACAGGCAAGAGGUCUCUAAGGUGUUCCUUUCCUUUGUCUGAGUGUAUAGUAUUAAGAUGCCUAGUGGAAUUCUCGGGUGCCAA`: “RBNS enrichment (R)” 0.315.
Under “RBNS enrichment (R)”, `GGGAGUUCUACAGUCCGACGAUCUAUUUGAGCAAAUAAUGAUAGGGCAUACUCAGACAUUUUAGCUACCUUUUAUACCUACGAUUUCAUGUCACAUUUACUAAUAGAAUUAAGGGAAAUAGAAGCCCGUUCUUUGGAAUUCUCGGGUGCCAA` is recorded as 0.275.
Under “RBNS enrichment (R)”, `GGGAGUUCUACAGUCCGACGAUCACCUUCAGCUCAUCGGAUGUACAGUUUACAGUUGAGUAACAGUGAACGGAAGGAUUUUCUUUCUUGGUCGGAUGUGCAGAACUUGGGAUGUGUAUAUAUAAAUAUAUAAUUGGAAUUCUCGGGUGCCAA` is recorded as 0.965.
Under “RBNS enrichment (R)”, `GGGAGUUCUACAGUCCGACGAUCCAGAGUUGAGCCAGCCCUCGCUGCCUUGGGUGCUUGCUUACCACCAGUCAAGGUUGCUCUGAACUUUCCCAUAACCAUUAUCCCCCAAGACCACCAGGCUCUGAGUGACCUGGAAUUCUCGGGUGCCAA` is recorded as 0.35.
`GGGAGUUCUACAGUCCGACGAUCGAUUAGCUGCCAUGUUUUAUUCUUAUAAGGAAAAGCACAGAGAUCAUUAAAGUAAGUUUUACAAUAAGGAAUGGUUCUGUUUUUUCCUGGCUGAGCUUUGCUGGUGGUCGUGGAAUUCUCGGGUGCCAA` — result for “RBNS enrichment (R)”: 0.328.
Under “RBNS enrichment (R)”, `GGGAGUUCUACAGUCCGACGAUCUAUUAUAAACCCACCUCCUAAUAGGAAGCCAAGUACUAUUUGAUACAGUGGUAAAAACCAAACUACCUUGAAUUUUUUUAAGGCAACUUAUGAAUAAUGCUCAUUUUCACUGGAAUUCUCGGGUGCCAA` is recorded as 0.357.
`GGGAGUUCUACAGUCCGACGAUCCUCCUUGUAUUCCCACUUUCGUAGUCAUUUCGGUUCUGAUCUUGUCAAACCCAGCCUGACCGCUUCUGACGCCGGGAUGGCCUCGUUACUAGACUUUUCUUUUUAAGGAAUGGAAUUCUCGGGUGCCAA` — result for “RBNS enrichment (R)”: 0.262.
`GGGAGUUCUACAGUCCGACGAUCCGGAGUAACUGGCUUAAGGGGUUAAUGUGAGGCCUUACACAGUUGACGCAUAUACAUGAUUCUCAUAUUUAUUGUGUAAAUUGGCUUUAAUACACUUGGAUCACAUUCACUGGAAUUCUCGGGUGCCAA` — result for “RBNS enrichment (R)”: 0.409.

Further values, each from its own experiment
`PhoQ, residues 284 288 289 292 302 303 SCKMEA` has a fold induction of 12.1 (PhoP, residues 12 14 15 18 19 LFHKL (Escherichia coli, UniProt P23836); Sort-seq, measured: YFP reporter; E. coli; PhoQ-PhoP variant library, together with: 10 µM Mg2+; baseline: high Mg2+ state, higher = stronger signaling).
